Measured values collected from several papers.
Numbered parts are unrelated; each lists some results of a single study. Substitutions count along the parent as printed.

Study 1
Target: RING finger protein unkempt homolog, zinc fingers 1-6, GST-SBP tag (UNK, Homo sapiens, UniProt Q9C0B0, residues 30-357)
UniProt Q9C0B0, sequence (30-357, looked up): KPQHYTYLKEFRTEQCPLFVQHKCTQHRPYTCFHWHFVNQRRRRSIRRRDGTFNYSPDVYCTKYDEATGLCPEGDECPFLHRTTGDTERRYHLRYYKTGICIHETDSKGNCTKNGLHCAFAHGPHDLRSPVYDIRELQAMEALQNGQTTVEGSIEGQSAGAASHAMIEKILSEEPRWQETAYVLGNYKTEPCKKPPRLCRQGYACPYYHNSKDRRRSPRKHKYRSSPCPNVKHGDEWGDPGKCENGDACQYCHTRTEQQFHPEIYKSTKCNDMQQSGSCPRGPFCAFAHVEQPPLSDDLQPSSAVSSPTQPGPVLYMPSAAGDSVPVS
Technique: RNA Bind-n-Seq
Form: RNA
Matrix: in vitro
Concentration: not given
Notes: RNA with constant flanks, ends assumed
Reference: input RNA pool
Reading: higher = stronger binding
| Strand | bound/input enrichment [ratio] |
| --- | --- |
| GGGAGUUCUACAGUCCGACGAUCAGGUUAACUCUGAGAGCCAUCAAACUGUGGGCCAAACGGCACAACAUCUAUUCCAAUAUAUCCGGUUUCCUCGGUGGUGUUUCCUGGGCUAUGCUAGUAGCAAGAACUUGCCAGCUUUAUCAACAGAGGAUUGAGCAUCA | 0.184 |
| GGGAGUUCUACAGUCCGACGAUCGUUAUUCUUGUAUGUAAUCCUGUGGCUUAACGACUUUUCCCUCCUCACCCUGCACUUCUCCCGCUCUCUGUUCCCUCUCCAUGGCUCUGACUCUUCUUAUUCUUGUGCUAAGACUUGUAGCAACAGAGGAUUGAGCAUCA | 0.966 |
| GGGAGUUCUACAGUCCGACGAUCGGGUCGUGGUUCAUCCAGUCCCUUUGCAGCAUGCUGAAGCUGUACGCGCACAAGCCCGAAUUUAUGCACAUUCUCACUCGCGUUAACAGGAAGGUGGCAACGGAAUUCGAGUCCUUCUCCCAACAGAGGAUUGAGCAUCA | 0.173 |
| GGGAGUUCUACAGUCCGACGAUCGGUGUACGCGGCGAUUUCAACUCUCGAAUGGGAGGAGGCAGUAUAGAGGUAUCUGUGCCCCGGUUUGCUGUGGGGAUUGUAAUAGGAAGAAACGGGGAAAUGAUCAAAAAGAUCCAGAAUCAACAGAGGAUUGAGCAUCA | 1.07 |
| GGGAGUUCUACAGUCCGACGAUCGCACGCCUUGCUAGUUUAAUGAAUCUUGGAAUGAGUUCUUCAUUGAAUCAACAAGGAGCUCACCGUGCACUGUCUUCUGCUAGUACUUCUUCCCAUAAUUUGCAGUCUAUAUUUAACAUUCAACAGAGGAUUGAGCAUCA | 0.552 |

Study 2
Target: ABI1, truncated, D143A, DHFR fusion (Arabidopsis thaliana)
Technique: DHFR PCA, deep sequencing
Matrix: yeast
Notes: methotrexate growth selection, single substitutions
Added: (+)-ABA 0.11 µM
Reference: wild-type fitted maximum
Reading: higher = stronger binding
Starting sequence: PYL1, truncated, DHFR fusion (Arabidopsis thaliana); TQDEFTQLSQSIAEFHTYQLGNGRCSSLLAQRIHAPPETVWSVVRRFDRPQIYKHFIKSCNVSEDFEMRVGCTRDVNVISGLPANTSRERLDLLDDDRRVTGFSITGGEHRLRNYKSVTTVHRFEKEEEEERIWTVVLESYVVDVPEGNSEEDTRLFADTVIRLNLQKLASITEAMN; partner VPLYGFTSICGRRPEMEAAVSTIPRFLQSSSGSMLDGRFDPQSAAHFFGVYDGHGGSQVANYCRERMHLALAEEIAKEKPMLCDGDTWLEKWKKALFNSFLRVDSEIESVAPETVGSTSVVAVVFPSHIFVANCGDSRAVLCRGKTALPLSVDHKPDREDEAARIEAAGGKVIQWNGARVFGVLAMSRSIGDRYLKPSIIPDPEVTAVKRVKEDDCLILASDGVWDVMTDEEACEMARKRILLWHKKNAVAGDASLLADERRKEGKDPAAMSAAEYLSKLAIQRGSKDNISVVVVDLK
| Variant | relative binding score |
| --- | --- |
| C60Y | 4.63% |
| V143N | -2.33% |
| A30K | 15.1% |
| D144H | -3.88% |
| I12D | -3.1% |
| L138M | 2.29% |
| Y115S | -2.09% |

Study 3
Target: JUN, bZIP domain (human)
Technique: DHFR protein complementation
Matrix: yeast
Notes: single substitutions, most at no-binding floor
Reference: wild-type JUN-FOS pair
Reading: higher = stronger binding
Starting sequence: JUN, bZIP domain (human); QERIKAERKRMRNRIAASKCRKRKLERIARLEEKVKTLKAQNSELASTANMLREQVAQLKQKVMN; partner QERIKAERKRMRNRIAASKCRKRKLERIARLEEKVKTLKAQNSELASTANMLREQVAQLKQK
| Variant | binding fitness |
| --- | --- |
| A49E | -0.586 natural log |
| L31M | -0.86 natural log |
| A40G | -0.63 natural log |
| K39E | 0.0309 natural log |
| V56H | -1.01 natural log |
| A46Q | -0.121 natural log |
| A46S | -0.27 natural log |
| R30K | -0.279 natural log |

Single results of other studies
| Substance | target | assay | system | conditions | scale | quantity | result |
| --- | --- | --- | --- | --- | --- | --- | --- |
| PhoQ, residues 284 288 289 292 302 303 SLSVQF | PhoP, residues 12 14 15 18 19 FWNTL (Escherichia coli, UniProt P23836) | Sort-seq, measured: YFP reporter | E. coli | PhoQ-PhoP variant library, added: 10 µM Mg2+ | reference: high Mg2+ state, higher = stronger signaling | fold induction | 9.76 |

For quick reference, copied from above (study 2):
| Variant | relative binding score |
| --- | --- |
| V143N | -2.33% |
| A30K | 15.1% |
